# Assay results collected from several papers.
# Every numbered part comes from another study and shows a few of its results, in no order. Positions count from the first letter of the parent shown.

# Sample 1 — method: RNA Bind-n-Seq; molecule type: RNA; sample: in vitro; tested at: 365 nM; relative to: no-protein control; reading: higher = stronger binding
# Target: RNA binding protein fox-1 homolog 2, RRM domain, GST-SBP tag (RBFOX2, Homo sapiens, UniProt O43251-10, residues 100-194)
# Notes: natural RNA segment, single round, ends assumed
# Residues (chain): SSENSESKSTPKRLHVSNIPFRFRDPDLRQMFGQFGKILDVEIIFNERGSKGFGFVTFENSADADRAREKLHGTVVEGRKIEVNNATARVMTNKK
Strand,RBNS enrichment (R)
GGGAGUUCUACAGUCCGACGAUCGGAGAUCUGCCUUCCUACCCUCGGGAAGGGUCACCUAGAGGCUUCUCAGCCCCACCCUCACCCUCUGGCCAGGAUCCUACAAGGCUACAUCCCCUGCUGCUUGGUUGACCUGGAAUUCUCGGGUGCCAA,0.352
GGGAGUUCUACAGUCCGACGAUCAUGUGGAGGGGAGAUAGAGAUUAACCAGCCGUUUUGUGAUGCCGUGGAUUGAUCAAGUCUUCUGAUCCUUUUUUUUUUCUUUAUAUUUUGGGUUUUGGAGCUUUUAAAAAUGGAAUUCUCGGGUGCCAA,0.94
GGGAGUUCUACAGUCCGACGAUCUCCUGUUCAGACUUUUCCUGAUGACAAUAGUAUCGAGGACACACCAUCAAAAUGUUACUGCCGGUUGAAAGCCAUGAUCAUGUGCAAAGGAUGUGGAGCUUUCUGCCAUGUGGAAUUCUCGGGUGCCAA,0.868
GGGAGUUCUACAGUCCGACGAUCGCUGAGUGGAGCACCCACCCAAACACCAGACCACACUGUCCUCCGAAAAUAAACAUUUUAUACAGACUUGUGUCUUUGCUUCUGUCUUCCCCGUGGGCACUUGGCCAUUGUGGAAUUCUCGGGUGCCAA,1.1
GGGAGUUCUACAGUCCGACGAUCGUGAGAGCCAGAUCUAGAGAGUCAGAACCCGGGGGUCUUGAGAUAGGAGGCAAAGCAGCUAUGGAAGGGCUUUUGCUGGUUAAUCAUUUCUGAGGUGAAAGACCUUCUUCUGGAAUUCUCGGGUGCCAA,1.26
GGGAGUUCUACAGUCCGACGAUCUGCUGGAUAGUACCCAAAUCACUUAAAACCUGUUUCCAUUCGCUUUUUACUUAAAAAUAAACAUUUGCGAGAAGUUACCAAGGCAGCUCUUGUCCUCAGAAGGAACCUGCUGGAAUUCUCGGGUGCCAA,1.07
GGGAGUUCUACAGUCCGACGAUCUAACACAGGACGUGUGUGCGCAUGUGCAAGUGUGGAUGUAUGUGUGUGCGUGUGUUUUGCUCAUUUCUUUAGGGAACUUGGGAGUCGGGGUUGGAGGUGCUGGGCAAUGGUGGAAUUCUCGGGUGCCAA,1.16
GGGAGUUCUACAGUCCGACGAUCGAUAGCUUCUAUUUGUUAGAAGAUGACCUAAGUCAGAAAAAAGUAGUUCCCCCUUCCUGAGAGACUCUGUCUGGGCCAGAAGCCAUUCAUUGAAAGGUUGCGAUGGCAACUGGAAUUCUCGGGUGCCAA,0.192
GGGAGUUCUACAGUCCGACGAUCCGUGUUGUACAUAGAAUGAUGAAGGGUUCCACUGUUGUUGUAUGUCUUAAAUUUAUUUAAAACUUUUUUUAAUCCAGAUGUAGACUAUAUUCUAAAAAAUAAAAAAGCAAUGGAAUUCUCGGGUGCCAA,0.734
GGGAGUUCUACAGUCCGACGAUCACACCCUUCCUAUUCUUUUUCAUUCUUCUUGCAGUUCUGGGAGUAAAGCUCCCAGCAUAUUUAGAUAAUAGGGCAGGGGAAGCACCCUCUUUCUUUCUAGACUGGAUUAUUGGAAUUCUCGGGUGCCAA,0.687
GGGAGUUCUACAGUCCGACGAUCAUUUGCAGAGAAACAGGUGUACAGUUAUCGUUGUACUUUUGUACAAUGUGAAUUUUGUUAAUAAAUUAUAAGGUUUGUUUUUUUUUUUUUAAACUCUGCAGUGUUGAUUUUGGAAUUCUCGGGUGCCAA,1.06
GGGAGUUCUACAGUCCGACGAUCCCCUGACUUGACCUCAGGGCCUGGGGAGGGAAGCACCAUACCAGGGCCAGGAGCUCCAACUCCGACGUGUCAGCCUCUGGGGGAGGGGGGAUUAAGCCUUGAGCUUGGCUUGGAAUUCUCGGGUGCCAA,0.55

# Sample 2 — method: protein-binding microarray; molecule type: double-stranded DNA, one strand shown; sample: in vitro; tested at: 250 nM; notes: 60-bp whole probe; with: salmon DNA 0.4 mg/ml; relative to: random background probes; reading: higher = stronger binding; all sequences stand within: GCCTAGCAC … GTCTTGATTCGCTTGACGCTGCTG
# Target: Interferon regulatory factor 7, full length, phosphomimetic (IRF7, Homo sapiens, UniProt Q92985, residues 1-503, S101K/S471D/S472D/S475D/S476D/S477D/S483D/S484D/S487D)
# UniProt Q92985, sequence (whole entry, unmodified, looked up): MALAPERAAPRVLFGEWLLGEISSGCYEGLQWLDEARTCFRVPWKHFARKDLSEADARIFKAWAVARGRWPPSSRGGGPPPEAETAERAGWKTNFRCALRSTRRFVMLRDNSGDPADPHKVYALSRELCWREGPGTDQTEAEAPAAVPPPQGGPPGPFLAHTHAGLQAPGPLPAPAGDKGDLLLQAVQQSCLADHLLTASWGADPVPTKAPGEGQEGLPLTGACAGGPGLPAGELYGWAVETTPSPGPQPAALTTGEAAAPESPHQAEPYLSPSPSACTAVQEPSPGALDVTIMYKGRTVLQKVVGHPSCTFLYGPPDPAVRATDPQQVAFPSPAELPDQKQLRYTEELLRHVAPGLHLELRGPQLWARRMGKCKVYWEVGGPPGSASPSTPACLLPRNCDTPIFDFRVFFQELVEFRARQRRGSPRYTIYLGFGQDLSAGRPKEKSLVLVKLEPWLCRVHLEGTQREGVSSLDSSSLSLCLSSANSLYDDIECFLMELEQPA
Strand,log fluorescence
GACGGTACCGGGTATCGGGACGTGCTA,-0.0908 z-score
TTAGGACTAGGGACTGGGTTAGTGCTA,0.124 z-score
TTATAACTGAGTATCGATTAGTGCTAG,1.02 z-score
GACGGACTGGGTATCGGGGCGTGCTAG,-0.276 z-score
GACGATCTCAGTTTCGAGGCGTGCTAG,2.21 z-score
TCAGGACTGGGACTGGGTTAGTGCTAG,-0.186 z-score
TTAGATATCCGACTGGATTAGTGCTAG,-0.348 z-score
TTAGGTTTCGACACTGCGTTAGTGCTA,3.5 z-score
TACGGACTGGGTATCGGGACGTGCTAG,-0.164 z-score
TTAGGACTGGGGTATCGCTTAGTGCTA,-0.199 z-score
TCAAGTTTCTTTTCTTTACTGTGCTAG,6.62 z-score
GAGGGTTTCGGGTATCGGGACGTGCTA,5.61 z-score
GCCGGTATCGACTTTCGGGACGTGCTA,1.45 z-score
TTAGGTTTCGACACGGGGTTAGTGCTA,3.71 z-score
TTAGTTTTCGGGTATCGATTAGTGCTA,3.73 z-score
GCCGAACTGAGACTGGAGACGTGCTAG,-0.183 z-score
GACGGACTGGGGTATTGGGACGTGCTA,-0.876 z-score
TTAGATATCAGTCTCGATAAGTGCTAG,0.346 z-score
TTAGAACTGGGTTATCGATTAGTGCTA,0.121 z-score

# Sample 3 — method: protein-binding microarray; molecule type: double-stranded DNA, one strand shown; sample: in vitro; tested at: 0.8 µM; notes: whole 60-bp probe, no competitor; reading: higher = stronger binding
# Target: Centromere-binding protein 1, full length, N-terminal tag (CBF1, Saccharomyces cerevisiae, UniProt P17106, residues 1-351)
# UniProt P17106, sequence (whole entry, looked up): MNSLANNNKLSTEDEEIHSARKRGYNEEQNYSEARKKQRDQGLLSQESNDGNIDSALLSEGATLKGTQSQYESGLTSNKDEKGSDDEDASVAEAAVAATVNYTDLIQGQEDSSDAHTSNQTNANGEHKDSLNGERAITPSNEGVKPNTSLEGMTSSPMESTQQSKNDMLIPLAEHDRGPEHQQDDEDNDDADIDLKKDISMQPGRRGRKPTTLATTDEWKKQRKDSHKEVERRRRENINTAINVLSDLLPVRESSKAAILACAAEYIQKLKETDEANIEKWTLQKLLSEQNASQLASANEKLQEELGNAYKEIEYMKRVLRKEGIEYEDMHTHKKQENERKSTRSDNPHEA
Strand,fluorescence intensity [a.u.]
CTAGTACAGTTGCATCAGGTTGATAGTTATGTTTTCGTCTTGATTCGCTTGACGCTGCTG,509
CTATTTTTTTTTTTTCACATGTTTCAATTTGCGTTCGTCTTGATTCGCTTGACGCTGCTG,923
CTATTTTGGCGGAATGGTGTGAGTGGTTCACTTTTCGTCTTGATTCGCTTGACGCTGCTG,497
CTAGCCCCCAACTTGCACGTTTTGGTAGTACATTTCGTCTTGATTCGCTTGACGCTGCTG,560
GAACTAACTGAAAGGCATGTGGGTTTGTGTGTGTAGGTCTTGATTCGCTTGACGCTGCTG,550
CTAATATTATATTATCACATGCGGTGTGAGAAGTTCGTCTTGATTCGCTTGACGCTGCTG,1480
TGTACGAAGCTATTCCACGAGCGTATAGTAGTTAGGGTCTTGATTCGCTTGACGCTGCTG,515
GAAATAAAAAGGGCAATCATGATGGCCATCGACTAGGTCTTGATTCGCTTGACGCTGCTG,488
CTAACAACTTGTATGCACGATGTCGGATCAAAATTCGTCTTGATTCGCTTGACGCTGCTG,538
CTACAGCATATACGTCACGTTCTGCTCATCGTGTTCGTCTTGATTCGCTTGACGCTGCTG,2010
GAATACGAAGCTTATCACATGCACCATTATCTGTAGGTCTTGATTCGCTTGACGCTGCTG,1760
GAATTTGTTGTGCGTCACCCTTCCATGATTATATAGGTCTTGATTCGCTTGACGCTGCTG,548
CTAAGTCGGGAACCTGATGCATCATTCTTTATCTTCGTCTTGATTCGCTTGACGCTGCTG,532
CTAAAGATGAAAAGAACCGTGATCAGCAACAGCTTCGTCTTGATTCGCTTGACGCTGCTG,645
TGTACGAAGCTATTTCATAAGTCTATAGTAGTTAGGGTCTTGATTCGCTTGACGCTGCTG,464
GAACGTCAAAATTAACACATGAGTCTACTGAATTAGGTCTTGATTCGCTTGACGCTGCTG,585
CTAAATCTCTTGCAATTGGTGTCACTGCCACATTTCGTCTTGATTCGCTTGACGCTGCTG,560

# Sample 4 — target: CCND2, cyclin fold, Cln2 fusion (human); method: yeast growth competition, sequencing; sample: yeast; notes: weak parent motif; relative to: not given; reading: higher = stronger binding
# Starting sequence: CDC25A docking peptide (human); PPHRRRLLFACSP
Change,normalised enrichment score
L7Y,0.0182
C11K,-0.376
L8A,0.0866
L8N,0.104
F9W,0.418
L8Q,-0.154
S12Q,-0.129
P2F,0.113
R6V,0.129
C11Y,-0.00474
L8H,-0.147
F9L,0.0997
H3F,0.498
P1D,-0.207
S12P,0.322
L8E,-0.131
P1R,0.0402
R5I,0.166
R4E,0.25
L7Q,-0.0673
P1G,-0.0572
A10N,0.0451
C11Q,0.33
L8G,0.152
F9I,0.101

# A few entries again (sample 2):
Strand,log fluorescence
TTAGGACTGGGGTATCGCTTAGTGCTA,-0.199 z-score
GAGGGTTTCGGGTATCGGGACGTGCTA,5.61 z-score
GACGATCTCAGTTTCGAGGCGTGCTAG,2.21 z-score
GCCGGTATCGACTTTCGGGACGTGCTA,1.45 z-score
TTAGTTTTCGGGTATCGATTAGTGCTA,3.73 z-score
TTAGGACTAGGGACTGGGTTAGTGCTA,0.124 z-score
